Measured values collected from several papers.
Lines come from different studies, so protocols differ. ± marks the error that the study gave. Converted amounts (≈) assume the structure as drawn.
Organism: Mycobacterium tuberculosis

C=C(C)c1ccc(OCCc2cccc(F)c2)c(C(N)=O)c1 — IC90 (growth; H37Rv-LP; 120 h): 480 ± 270 nM
COc1ccc(-c2cc(C(F)(F)F)c3c(N)c(C(=O)N4CC5(CCOC5)C4)sc3n2)cc1 — selectivity index (H37Rv wild type; relative to: HepG2 IC50 over M. tuberculosis IC90): < 1
CNC(=O)c1cc(-c2ccoc2)ccc1OCCc1cccc(F)c1 — selectivity index (H37Rv-LP; relative to: HepG2 CC50 over Mtb IC90): 28
Nc1c(C(=O)N2CCOCC2)sc2nc(-c3ccoc3)ccc12 — IC50 (growth inhibition; H37Rv LepB under-expressing): 25 ± 10 µM
COC(=O)C(=O)[C@H](C[C@@H]1CCNC1=O)NC(=O)[C@H](CCCCN)NC(=O)[C@H](Cc1ccccc1)NC(=O)OCc1ccccc1 — IC50 (bacterial growth; THP-1 macrophages, Mtb-lux; 72 h): 9.6 ± 2.7 µM
COc1ccc(-c2cc(C(F)(F)F)c3c(N)c(C(=O)NCc4ccccc4)sc3n2)cc1 — IC50 (growth inhibition; H37Rv LepB under-expressing): > 100 µM
O=c1c2cc(Cl)ccc2[nH]c(=S)n1CCc1cccnc1 — MIC90 (PptT conditional knockdown): > 100 µM
CC(=O)c1ccc(OCCc2cccc(F)c2)c(C(N)=O)c1 — selectivity index (H37Rv-LP; relative to: HepG2 CC50 over Mtb IC90): > 28
Nc1c(C(=O)NCc2ccc(F)cc2)sc2nc(-c3ccccc3)ccc12 — IC50 (growth inhibition; H37Rv LepB under-expressing): > 100 µM
O=c1[nH]c2cc(CO)c(Cl)cc2c(=O)n1Cc1cccnc1 — MIC90 (PptT conditional knockdown): 0.57 µM (≈ 0.181 µg/mL)
COc1ccc(-c2cc(C(F)(F)F)c3c(N)c(C(=O)N4C5CCCC4COC5)sc3n2)cc1 — IC50 (growth inhibition; H37Rv LepB under-expressing): > 100 µM
CN(C)Cc1cc2[nH]c(=S)n(Cc3cccnc3)c(=O)c2cc1Cl — MIC90 (PptT conditional knockdown): 1.54 µM (≈ 0.556 µg/mL)
COc1ccc(-c2ccc(OCCc3cccc(F)c3)c(C(N)=O)c2)cc1 — IC90 (growth; H37Rv-LP; 120 h): > 100000 nM
COc1ccc(-c2ccc3c(N)c(C(=O)Nc4cccc(C)c4C)sc3n2)cc1 — IC50 (growth inhibition; H37Rv LepB under-expressing): > 100 µM
Cc1ccc(OCCc2cccc(F)c2)c(C(N)=O)c1 — selectivity index (H37Rv-LP; relative to: HepG2 CC50 over Mtb IC90): 53
COCC(=O)OCc1cc2[nH]c(=S)n(Cc3cccnc3)c(=O)c2cc1Cl — MIC90 (PptT conditional knockdown): 2.29 µM (≈ 0.929 µg/mL)
Cc1nc(OCCc2cc(F)cc(F)c2)c(C(=O)NC(C)C)s1 — selectivity index (H37Rv-LP; relative to: HepG2 CC50 over Mtb IC90): 0.2
CC(c1cccnc1)n1c(=S)[nH]c2ccc(Cl)cc2c1=O (centres unmarked) — maximum growth inhibition (intracellular growth; THP-1 macrophages, H37Rv-GFP): ~72%
NCC[C@H](O)C(=O)N[C@@H]1C[C@H](N)[C@@H](O[C@H]2O[C@H](CN)[C@@H](O)[C@H](O)[C@H]2O)[C@H](O)[C@H]1O[C@H]1O[C@H](CO)[C@@H](O)[C@H](N)[C@H]1O — MIC80 (resazurin reduction; H37Rv mc2-6206 wild type): 0.85 µM (≈ 0.498 µg/mL)
NC(=S)c1cncc(Cn2c(=S)[nH]c3cc(CO)c(Cl)cc3c2=O)c1 — MIC90 (PptT conditional knockdown): 2.76 µM (≈ 1.08 µg/mL)
Nc1cccc(F)c1C(=O)NNc1ccc(Cl)cc1 — MIC99 (H37Rv; 336 h): 1.56 to 2.84 µM (≈ 0.436 to 0.794 µg/mL)
COc1ccc(-c2ccc3c(N)c(C(=O)N4CCOCC4)sc3n2)cc1 — IC50 (growth inhibition; H37Rv LepB under-expressing): > 100 µM
O=c1c2cc(Cl)c(CO)cc2[nH]c(=S)n1Cc1cncc(-c2nnn[nH]2)c1 — MIC90 (PptT conditional knockdown): 11.9 µM (≈ 4.78 µg/mL)
